Assay results pooled from the literature.
Compare with care: the assays were run in different laboratories. “And” joins repeats or separate records; there may be more than shown.
Target: Serine/threonine-protein kinase PAK 6 (PAK6, Homo sapiens, UniProt Q9NQU5)

CCN1CCN(Cc2ccc(C(=O)Nc3ccc(C)c(NCc4cnc5[nH]ccc5c4OC)c3)cc2C(F)(F)F)CC1 — remaining binding (binding, competition with immobilised ligand; 1 µM): 100%
COCC12C(=O)NC3C4(C(OC)CC1O)C1CC5(O)C(OC)C(O)C(OC(C)=O)(C1C5OC(=O)c1ccccc1)C3(O)C(OC)C24 (stereo not drawn) — remaining activity (kinase activity, inhibitor, ProQinase kinase profiling; 25 µM; reference: control): 91% and 97%
Cc1cccc(O[C@H]2CCC[C@@H](C(C)CNCc3ccncc3)C2)c1 (relative stereo) — inhibition (enzyme activity, inhibitor; 10 µM): -8%
O=C=[N][Ru-4]123([n]4c5ccc(O)cc5c5c6c(c7cc(F)c[n+]1c7c54)C(=O)NC6=O)[S+]1CC[S+]2CC[S+]3CC1 (stereo not drawn) — remaining activity (enzyme activity; 100 nM, human enzyme, added: 10 µM ATP; reference: untreated): 96%
Cc1nc2c(F)cc(-c3nc(Nc4ccc(CNC(=O)CCCCCCC(=O)NO)cc4)ncc3F)cc2n1C(C)C — inhibition (enzyme activity, inhibitor; 1 µM): 41%
COc1c(Cl)cccc1Nc1c(-c2ccncc2C#C[C@@]2(C)CCCN2C(=O)/C=C/CN(C)C)[nH]c2c1C(=O)NCC2 — remaining binding (cell-free assay, competition with immobilised ligand; 3 µM): 74%
CNC(=O)C1CCN(c2cc(C)c(F)cc2NC(=O)c2ccc(-c3cc(O)ccc3C)c(C)c2)CC1 — remaining binding (binding, competition with immobilised ligand; 1 µM): 100%
NC(=O)C[C@H]1CCc2sc3ncnc(O[C@H]4CC[C@H](N5CCOCC5)CC4)c3c21 — inhibition (enzyme activity, inhibitor; 10 µM): 5%
Cc1ccc(C)c(-c2ccc3nc(NC(=O)C4CCCCC4)nn3c2)c1 — remaining activity (enzyme activity, Dundee kinase panel; 10 µM): 83%
C=CC(=O)Nc1cccc(-c2cnc3[nH]cc(C(=O)NC(C)(C)C)c3n2)c1 — inhibition (kinase activity; 0.1 µM): 4% and 2%
Cc1cnc2nc1Nc1cccc(c1)COC/C=C/COCc1cc(ccc1OCCN1CCOCC1)N2 — remaining binding (binding; 0.1 µM): 84%
Cc1cccc(-c2ccc3nc(NC(=O)C4CCOCC4)nn3c2)c1 — remaining activity (enzyme activity, Dundee kinase panel; 10 µM): 82%
C=CC(=O)N1CCCC(n2c(=O)c3ncccc3n(Cc3ccc(Oc4ccccc4)cc3)c2=O)C1 (stereo not drawn) — remaining binding (cell-free assay, competition with immobilised ligand; 1 µM): 100%
CNC(=O)C[C@H](Cc1ccc(C#N)cc1)NC(=O)c1cc(-c2ccc(CN[C@H](C)c3ccc(C)cc3)o2)ccc1Cl — activity vs control (enzyme activity, inhibitor; 1 µM): 96%
COc1cc(Nc2nccc(-c3cnn4nc(OC)ccc34)n2)cc(C(F)(F)F)c1 — remaining binding (binding, competition with immobilised ligand; 1 µM): 80%
C[C@H]1CN(C(=O)c2cn(-c3ccnc(N)n3)c3cc(C#CC4(O)CCCCC4)ccc23)CCN1 — inhibition (enzyme activity, inhibitor, FRET; 1 µM): 77%
CC(C)=CC1OC(C)(C)C2C=C3C(=O)C(Cl)=CC(O)C3C3C(O)C4OC4C(=O)C132 (stereo not drawn) — remaining binding (cell-free assay, competition with immobilised ligand; 10 µM): 92%
CN1CC[C@@H](COc2cnc(C#N)cc2-c2ccn3nc(NC(=O)C4CC4)cc3c2)C1 — inhibition (inhibitor, KinaseProfiler panel; 1 µM): 11%
